Published values pooled from the literature.
Numbered parts are unrelated; each lists some results of a single study. Values joined by “and” are separate records of one study, mostly repeats; a detail may differ.
Chain of UniProt P42336 (whole entry, unmodified, looked up): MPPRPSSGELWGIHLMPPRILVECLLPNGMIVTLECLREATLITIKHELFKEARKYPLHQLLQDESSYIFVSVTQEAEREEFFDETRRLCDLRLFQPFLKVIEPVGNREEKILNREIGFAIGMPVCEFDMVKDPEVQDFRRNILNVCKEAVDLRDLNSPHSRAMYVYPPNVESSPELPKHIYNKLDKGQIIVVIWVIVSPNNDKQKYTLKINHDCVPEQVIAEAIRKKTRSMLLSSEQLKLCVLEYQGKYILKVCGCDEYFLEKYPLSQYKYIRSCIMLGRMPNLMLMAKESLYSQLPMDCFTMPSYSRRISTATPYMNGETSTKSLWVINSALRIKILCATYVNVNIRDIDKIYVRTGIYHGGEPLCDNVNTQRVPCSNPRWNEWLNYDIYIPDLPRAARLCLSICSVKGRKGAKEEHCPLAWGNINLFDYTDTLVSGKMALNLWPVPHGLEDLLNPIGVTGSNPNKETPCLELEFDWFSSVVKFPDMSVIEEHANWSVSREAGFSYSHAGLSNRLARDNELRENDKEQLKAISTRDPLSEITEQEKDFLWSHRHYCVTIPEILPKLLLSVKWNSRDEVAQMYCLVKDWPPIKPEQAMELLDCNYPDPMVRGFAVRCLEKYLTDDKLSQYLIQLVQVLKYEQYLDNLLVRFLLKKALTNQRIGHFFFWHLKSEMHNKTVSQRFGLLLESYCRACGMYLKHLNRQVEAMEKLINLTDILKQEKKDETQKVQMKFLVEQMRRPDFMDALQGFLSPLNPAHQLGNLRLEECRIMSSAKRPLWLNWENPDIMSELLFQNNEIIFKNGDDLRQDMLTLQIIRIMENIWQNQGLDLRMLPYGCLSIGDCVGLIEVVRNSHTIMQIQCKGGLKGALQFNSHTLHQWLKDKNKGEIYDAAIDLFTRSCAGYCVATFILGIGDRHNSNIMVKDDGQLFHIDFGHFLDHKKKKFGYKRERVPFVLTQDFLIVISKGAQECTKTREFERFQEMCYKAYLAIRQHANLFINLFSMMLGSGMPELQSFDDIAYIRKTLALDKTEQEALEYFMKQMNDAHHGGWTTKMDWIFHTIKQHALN
Chain of UniProt P42681 (whole entry, looked up): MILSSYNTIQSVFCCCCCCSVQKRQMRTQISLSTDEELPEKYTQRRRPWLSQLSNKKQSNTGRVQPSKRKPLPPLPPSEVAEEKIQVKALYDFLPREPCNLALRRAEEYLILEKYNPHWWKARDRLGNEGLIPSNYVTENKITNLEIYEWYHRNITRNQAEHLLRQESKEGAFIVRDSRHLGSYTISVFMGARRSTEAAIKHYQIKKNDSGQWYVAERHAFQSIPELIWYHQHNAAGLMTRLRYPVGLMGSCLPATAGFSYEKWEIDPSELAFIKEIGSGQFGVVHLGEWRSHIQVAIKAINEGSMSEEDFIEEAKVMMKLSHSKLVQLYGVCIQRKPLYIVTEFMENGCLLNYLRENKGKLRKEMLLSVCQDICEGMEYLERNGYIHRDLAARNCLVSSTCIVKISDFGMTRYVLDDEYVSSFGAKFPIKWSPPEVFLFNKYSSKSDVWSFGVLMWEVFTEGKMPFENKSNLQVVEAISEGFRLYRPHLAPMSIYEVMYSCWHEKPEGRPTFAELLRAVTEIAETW
Chain of UniProt Q9BXA7 (whole entry, looked up): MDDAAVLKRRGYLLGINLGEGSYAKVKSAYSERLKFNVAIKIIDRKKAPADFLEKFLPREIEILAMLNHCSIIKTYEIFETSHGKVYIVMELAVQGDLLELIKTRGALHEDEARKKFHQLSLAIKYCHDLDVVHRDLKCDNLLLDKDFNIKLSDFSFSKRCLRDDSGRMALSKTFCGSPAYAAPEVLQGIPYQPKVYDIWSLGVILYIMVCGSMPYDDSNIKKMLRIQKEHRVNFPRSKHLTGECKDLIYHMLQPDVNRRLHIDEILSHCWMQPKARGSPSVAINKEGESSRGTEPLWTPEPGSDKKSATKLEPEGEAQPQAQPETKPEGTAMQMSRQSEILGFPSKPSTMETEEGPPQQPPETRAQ
Chain of UniProt Q13163 (whole entry, looked up): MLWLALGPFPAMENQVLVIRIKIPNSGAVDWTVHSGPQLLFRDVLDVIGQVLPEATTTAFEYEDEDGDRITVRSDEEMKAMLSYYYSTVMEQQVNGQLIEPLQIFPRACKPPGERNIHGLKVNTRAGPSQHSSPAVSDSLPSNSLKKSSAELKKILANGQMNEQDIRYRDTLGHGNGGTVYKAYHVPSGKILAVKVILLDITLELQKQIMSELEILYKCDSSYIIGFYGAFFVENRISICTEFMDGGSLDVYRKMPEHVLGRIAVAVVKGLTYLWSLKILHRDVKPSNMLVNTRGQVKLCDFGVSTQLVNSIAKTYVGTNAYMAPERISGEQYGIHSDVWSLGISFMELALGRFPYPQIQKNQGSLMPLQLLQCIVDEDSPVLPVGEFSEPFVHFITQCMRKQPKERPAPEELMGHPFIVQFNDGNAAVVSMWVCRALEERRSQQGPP

Study 1
Cell line: mouse MPNST tumor cells
Method: high-content immunofluorescence imaging
Refers to: nuclear SOX9
Tested at: 10 µM
Time: 12 h
Notes: mean of 2 replicates
Baseline: DMSO control
Direction: higher = more nuclear SOX9
Structure (SMILES)	nuclear SOX9 intensity
C[C@H]1COc2c(N3CCN(C)CC3)c(F)cc3c(=O)c(C(=O)O)cn1c23	93 % of DMSO
O=C(CCCCC(=O)Nc1c(I)cc(I)c(C(=O)O)c1I)Nc1c(I)cc(I)c(C(=O)O)c1I	95.2 % of DMSO
CCN(CC)CCCC(C)Nc1c2ccc(Cl)cc2nc2ccc(OC)cc12 (centres unmarked)	255 % of DMSO
O=C(Nc1nncs1)c1cccnc1	102 % of DMSO

Study 2
Target: DNA polymerase theta, ATPase domain (POLQ, Homo sapiens, UniProt O75417)
Chain of UniProt O75417 (whole entry, unmodified, looked up): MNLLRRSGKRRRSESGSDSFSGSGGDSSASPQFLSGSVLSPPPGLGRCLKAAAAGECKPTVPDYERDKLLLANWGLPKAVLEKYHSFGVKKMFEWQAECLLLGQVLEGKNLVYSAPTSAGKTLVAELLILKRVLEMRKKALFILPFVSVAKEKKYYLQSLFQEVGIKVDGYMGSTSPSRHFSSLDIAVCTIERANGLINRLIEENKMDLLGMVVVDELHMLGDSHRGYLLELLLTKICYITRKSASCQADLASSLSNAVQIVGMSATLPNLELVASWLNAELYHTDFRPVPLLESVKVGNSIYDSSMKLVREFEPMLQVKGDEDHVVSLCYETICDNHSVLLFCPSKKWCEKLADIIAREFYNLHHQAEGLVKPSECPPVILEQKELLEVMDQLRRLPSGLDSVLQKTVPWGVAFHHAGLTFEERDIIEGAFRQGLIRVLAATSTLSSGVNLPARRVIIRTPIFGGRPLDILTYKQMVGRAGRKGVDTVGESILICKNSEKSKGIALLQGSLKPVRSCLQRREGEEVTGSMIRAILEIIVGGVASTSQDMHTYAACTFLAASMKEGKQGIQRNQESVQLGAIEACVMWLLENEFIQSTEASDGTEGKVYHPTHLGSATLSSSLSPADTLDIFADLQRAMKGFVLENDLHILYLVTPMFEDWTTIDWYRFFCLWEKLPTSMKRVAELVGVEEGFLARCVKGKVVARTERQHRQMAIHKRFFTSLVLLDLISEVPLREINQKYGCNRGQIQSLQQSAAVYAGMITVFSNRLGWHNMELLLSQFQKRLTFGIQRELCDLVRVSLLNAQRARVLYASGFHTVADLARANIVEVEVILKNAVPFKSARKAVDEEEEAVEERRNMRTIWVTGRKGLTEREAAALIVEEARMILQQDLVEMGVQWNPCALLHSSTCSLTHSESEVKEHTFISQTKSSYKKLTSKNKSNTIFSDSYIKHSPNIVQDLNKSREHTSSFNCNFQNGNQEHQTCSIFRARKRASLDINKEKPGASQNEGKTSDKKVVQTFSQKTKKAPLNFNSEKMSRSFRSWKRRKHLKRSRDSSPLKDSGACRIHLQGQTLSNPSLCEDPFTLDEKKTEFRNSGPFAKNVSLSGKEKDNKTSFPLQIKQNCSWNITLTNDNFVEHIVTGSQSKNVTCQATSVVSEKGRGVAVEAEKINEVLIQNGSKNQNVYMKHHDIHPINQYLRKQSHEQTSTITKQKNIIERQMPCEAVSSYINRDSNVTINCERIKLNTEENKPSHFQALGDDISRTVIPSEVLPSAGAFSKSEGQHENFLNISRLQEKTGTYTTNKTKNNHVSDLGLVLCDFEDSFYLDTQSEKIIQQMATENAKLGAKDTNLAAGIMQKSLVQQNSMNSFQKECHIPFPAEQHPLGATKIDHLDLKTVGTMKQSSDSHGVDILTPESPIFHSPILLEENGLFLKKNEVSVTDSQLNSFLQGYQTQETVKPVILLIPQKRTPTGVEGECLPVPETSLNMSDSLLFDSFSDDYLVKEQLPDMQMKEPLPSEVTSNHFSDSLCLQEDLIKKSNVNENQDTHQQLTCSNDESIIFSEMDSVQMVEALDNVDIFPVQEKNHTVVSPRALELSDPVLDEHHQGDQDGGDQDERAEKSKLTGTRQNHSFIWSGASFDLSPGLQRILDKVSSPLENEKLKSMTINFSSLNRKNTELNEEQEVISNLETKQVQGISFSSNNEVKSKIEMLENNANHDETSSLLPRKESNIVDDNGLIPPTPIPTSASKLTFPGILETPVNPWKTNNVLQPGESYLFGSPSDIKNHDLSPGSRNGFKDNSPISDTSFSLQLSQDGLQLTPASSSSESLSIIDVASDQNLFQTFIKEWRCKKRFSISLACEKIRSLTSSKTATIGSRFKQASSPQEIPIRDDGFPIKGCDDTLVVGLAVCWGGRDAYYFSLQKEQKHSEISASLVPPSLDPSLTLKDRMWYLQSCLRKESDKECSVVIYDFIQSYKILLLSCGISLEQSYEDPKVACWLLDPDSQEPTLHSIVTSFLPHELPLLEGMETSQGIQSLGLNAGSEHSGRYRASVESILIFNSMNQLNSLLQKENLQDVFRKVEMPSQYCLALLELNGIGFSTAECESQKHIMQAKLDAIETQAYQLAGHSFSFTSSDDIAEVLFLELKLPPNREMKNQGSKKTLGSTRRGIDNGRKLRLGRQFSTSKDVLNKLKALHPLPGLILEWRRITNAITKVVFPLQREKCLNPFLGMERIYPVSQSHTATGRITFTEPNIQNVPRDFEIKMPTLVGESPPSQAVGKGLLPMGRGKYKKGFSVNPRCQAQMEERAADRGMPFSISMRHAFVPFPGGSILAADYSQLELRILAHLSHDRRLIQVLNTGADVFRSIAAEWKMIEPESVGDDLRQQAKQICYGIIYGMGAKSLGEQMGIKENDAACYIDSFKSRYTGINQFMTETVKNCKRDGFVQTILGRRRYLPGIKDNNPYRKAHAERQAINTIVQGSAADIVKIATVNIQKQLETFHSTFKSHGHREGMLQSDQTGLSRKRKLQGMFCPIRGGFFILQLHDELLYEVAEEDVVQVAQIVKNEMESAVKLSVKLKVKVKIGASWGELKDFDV
Read-out: enzyme activity
Mode: inhibitor
Tested at: 77 µM
Baseline: untreated
SMILES	remaining activity
COc1cc(N)c(Cl)cc1C(=O)OCCN1CCCCC1	96.4%
COCCc1ccc(OCC(O)CNC(C)C)cc1 (centres unmarked)	101%
CC(=O)NCCc1c[nH]c2ccc(O)cc12	91.1%
CCCCN(CC)c1nc(C)nc2c1c(C)cn2-c1c(C)cc(C)cc1C	95.9%
Nn1nnc2ccccc21	101%

Study 3
Compound: Cc1c(C(=O)O)cc(-c2ccc(C3CCNCC3)cc2)c2ccc(-c3ccc(C(F)(F)F)cc3)cc12
Method: competition with immobilised ligand
Tested at: 1 µM
target	read-out	remaining binding
STK38 (Homo sapiens, UniProt Q15208)	binding	84%
TSSK1B (Homo sapiens, UniProt Q9BXA7)	binding	100%
CDKL1 (Homo sapiens, UniProt Q00532)	binding	82%
CSNK1A1L (Homo sapiens, UniProt Q8N752)	cell-free assay	100%
ERN1 (Homo sapiens, UniProt O75460)	cell-free assay	100%
PIK3CA (Homo sapiens, UniProt P42336, E542K)	cell-free assay	99%
TXK (Homo sapiens, UniProt P42681)	binding	100%
MAP3K7 (Homo sapiens, UniProt O43318)	binding	100%
PIK3CA (Homo sapiens, UniProt P42336, Q546K)	cell-free assay	100%
SBK1 (Homo sapiens, UniProt Q52WX2)	binding	100%
WNK1 (Homo sapiens, UniProt Q9H4A3)	binding	100%
RIOK2 (Homo sapiens, UniProt Q9BVS4)	binding	100%
PLK2 (Homo sapiens, UniProt Q9NYY3)	binding	100%
MYLK4 (Homo sapiens, UniProt Q86YV6)	cell-free assay	100%
CHEK2 (Homo sapiens, UniProt O96017)	binding	100%
HCK (Homo sapiens, UniProt P08631)	cell-free assay	100%
ANKK1 (Homo sapiens, UniProt Q8NFD2)	binding	100%
KIT (Homo sapiens, UniProt P10721, L576P)	binding	100%
FGFR1 (Homo sapiens, UniProt P11362)	cell-free assay	100%
PIM1 (Homo sapiens, UniProt P11309)	binding	100%
Ribosomal protein S6 kinase alpha-6, N-terminal kinase domain (RPS6KA6, Homo sapiens, UniProt Q9UK32)	binding	100%
EGFR (Homo sapiens, UniProt P00533, del746-750)	cell-free assay	100%
MARK4 (Homo sapiens, UniProt Q96L34)	binding	97%
ACVR1B (Homo sapiens, UniProt P36896)	cell-free assay	100%
MAP2K5 (Homo sapiens, UniProt Q13163)	binding	100%

Study 4
Species: human
Medium: microsomes or S9
Tested at: 2 µM
Time: 0.5 h
SMILES	remaining compound [%]
CCCS(=O)(=O)N1CCC(Oc2nccnc2N2CCOCC2)C1 (centres unmarked)	95.2
CCOc1cc(=O)n2c(c1C(=O)NCc1ccccc1Cl)CCCCC2	0.258
COC(=O)CCCn1c(C(=O)c2ccccc2)c(C(C)C)c(=O)[nH]c1=O	8.25

Study 5
SMILES: COc1ccc2[nH]c3c4[nH]c5ccc(OC)cc5c4c4c(c3c2c1)C(=O)NC4=O
Read-out: binding
Tested at: 1 µM
target	method	remaining binding [%]
SYK (Homo sapiens, UniProt P43405)	competition with immobilised ligand	73
DAPK3 (Homo sapiens, UniProt O43293)		4.8
NIM1K (Homo sapiens, UniProt Q8IY84)		100
SIK3 (Homo sapiens, UniProt Q9Y2K2)	competition with immobilised ligand	56

Study 6
Organism: Sarcocystis neurona
Read-out: parasite growth
Tested at: concentration not given
Notes: first screen
Baseline: untreated
SMILES	log2 fold change
CC[C@@H]1C(=O)OC[C@@H]1Cc1cncn1C.Cl	0.18
CN(C)CC[C@@H](c1ccc(Br)cc1)c1ccccn1.O=C(O)/C=C\C(=O)O (single isomer, unassigned)	0.12
CN1CCN(c2nc3cc(C(F)(F)F)ccc3n3cccc23)CC1	0.12
CN1CCC(=C2c3ccccc3CCc3sccc32)CC1.O=C(O)/C=C\C(=O)O	-0.07

Study 7
SMILES: CC(C)n1cnc(-c2ccc(F)cc2)c1-c1ncc(C(=O)Nc2ccc(N3CCN(C)CC3)cc2)[nH]1
Species: idiopathic pulmonary fibrosis patients
Dose: 60 mg once daily
method	refers to	route	notes	patients with TEAE [%]
phase 2a trial		oral	LDL increased, grade 4	0
	skin papilloma			0
phase 2a trial		oral	musculoskeletal disorders, grade 2	1

Further values, each from its own experiment
Cell line: THP-1
Read-out: host cell growth
SMILES	tested at	inhibition
C[C@@H]1[C@H](O)[C@@H](C)/C=C/C=C/C=C/C=C/C=C/C=C/C=C/[C@H](O[C@@H]2O[C@H](C)[C@@H](O)[C@H](N)[C@@H]2O)C[C@@H]2O[C@](O)(C[C@@H](O)C[C@@H](O)[C@H](O)CC[C@@H](O)C[C@@H](O)CC(=O)O[C@H]1C)C[C@H](O)[C@H]2C(=O)O	0.02 µM	-1.78% and -0.72% and -3.11% and -1.81% and -0.47% and 2.73%
CCCCCCCCCCCCCCCCOP(=O)([O-])OCC[N+](C)(C)C	0.01 µM	-3.96% and -9.73% and -2.99% and -3.02% and -0.47% and -0.37%

Some of these lines once more (study 3):
target	read-out	remaining binding
TSSK1B (Homo sapiens, UniProt Q9BXA7)	binding	100%
CDKL1 (Homo sapiens, UniProt Q00532)	binding	82%
CSNK1A1L (Homo sapiens, UniProt Q8N752)	cell-free assay	100%
ERN1 (Homo sapiens, UniProt O75460)	cell-free assay	100%
PIK3CA (Homo sapiens, UniProt P42336, E542K)	cell-free assay	99%
TXK (Homo sapiens, UniProt P42681)	binding	100%
MAP3K7 (Homo sapiens, UniProt O43318)	binding	100%
